Results pooled from the literature.
Lines come from different studies, so protocols differ.
B1: RRP6 128-634 (Saccharomyces cerevisiae, UniProt Q12149); sequence looked up; chain RVEKPQLKFKSPIDNSESHPFIPLLKEKPNALKPLSESLRLVDDDENNPSHYPHPYEYEIDHQEYSPEILQIREEIPSKSWDDSVPIWVDTSTELESMLEDLKNTKEIAVDLEHHDYRSYYGIVCLMQISTRERDYLVDTLKLRENLHILNEVFTNPSIVKVFHGAFMDIIWLQRDLGLYVVGLFDTYHASKAIGLPRHSLAYLLENFANFKTSKKYQLADWRIRPLSKPMTAYARADTHFLLNIYDQLRNKLIESNKLAGVLYESRNVAKRRFEYSKYRPLTPSSEVYSPIEKESPWKILMYQYNIPPEREVLVRELYQWRDLIARRDDESPRFVMPNQLLAALVAYTPTDVIGVVSLTNGVTEHVRQNAKLLANLIRDALRNIKNTNEEATPIPSSETKADGILLETISVPQIRDVMERFSVLCNSNISKSRAKPVTNSSILLGKILPREEHDIAYSKDGLPNKVKTEDIRIRAQNFKSALANLEDIIFEIEKPLVVPVKLEEIK
B2: TREM2 Ig domain 19-134 R47H (Homo sapiens, UniProt Q9NZC2); sequence looked up; chain HNTTVFQGVAGQSLQVSCPYDSMKHWGRHKAWCRQLGEKGPCQRVVSTHNLWLLSFLRRWNGSTAITDDTLGGTLTITLRNLQPHDAGLYQCQSLHGSEADTLRKVLVEVLADPLD
B3: Nup98 732-880 (Mus musculus, UniProt Q6PFD9); sequence looked up; chain AGIVLTKVGYYTIPSMDDLAKITNEKGECIVSDFTIGRKGYGSIYFEGDVNLTNLNLDDIVHIRRKEVIVYVDDNQKPPVGEGLNRKAEVTLDGVWPTDKTSRCLIKSPDRLADINYEGRLEAVSRKQGAQFKEYRPETGSWVFKVSHF
B4: DIS3 (Saccharomyces cerevisiae, UniProt Q08162); sequence looked up; chain MSVPAIAPRRKRLADGLSVTQKVFVRSRNGGATKIVREHYLRSDIPCLSRSCTKCPQIVVPDAQNELPKFILSDSPLELSAPIGKHYVVLDTNVVLQAIDLLENPNCFFDVIVPQIVLDEVRNKSYPVYTRLRTLCRDSDDHKRFIVFHNEFSEHTFVERLPNETINDRNDRAIRKTCQWYSEHLKPYDINVVLVTNDRLNREAATKEVESNIITKSLVQYIELLPNADDIRDSIPQMDSFDKDLERDTFSDFTFPEYYSTARVMGGLKNGVLYQGNIQISEYNFLEGSVSLPRFSKPVLIVGQKNLNRAFNGDQVIVELLPQSEWKAPSSIVLDSEHFDVNDNPDIEAGDDDDNNESSSNTTVISDKQRRLLAKDAMIAQRSKKIQPTAKVVYIQRRSWRQYVGQLAPSSVDPQSSSTQNVFVILMDKCLPKVRIRTRRAAELLDKRIVISIDSWPTTHKYPLGHFVRDLGTIESAQAETEALLLEHDVEYRPFSKKVLECLPAEGHDWKAPTKLDDPEAVSKDPLLTKRKDLRDKLICSIDPPGCVDIDDALHAKKLPNGNWEVGVHIADVTHFVKPGTALDAEGAARGTSVYLVDKRIDMLPMLLGTDLCSLKPYVDRFAFSVIWELDDSANIVNVNFMKSVIRSREAFSYEQAQLRIDDKTQNDELTMGMRALLKLSVKLKQKRLEAGALNLASPEVKVHMDSETSDPNEVEIKKLLATNSLVEEFMLLANISVARKIYDAFPQTAMLRRHAAPPSTNFEILNEMLNTRKNMSISLESSKALADSLDRCVDPEDPYFNTLVRIMSTRCMMAAQYFYSGAYSYPDFRHYGLAVDIYTHFTSPIRRYCDVVAHRQLAGAIGYEPLSLTHRDKNKMDMICRNINRKHRNAQFAGRASIEYYVGQVMRNNESTETGYVIKVFNNGIVVLVPKFGVEGLIRLDNLTEDPNSAAFDEVEYKLTFVPTNSDKPRDVYVFDKVEVQVRSVMDPITSKRKAELLLK
B5: KIF5A (Mus musculus, UniProt P33175); Alexa 647 label; sequence looked up; chain MAETNNECSIKVLCRFRPLNQAEILRGDKFIPIFQGDDSVIIGGKPYVFDRVFPPNTTQEQVYHACAMQIVKDVLAGYNGTIFAYGQTSSGKTHTMEGKLHDPQLMGIIPRIARDIFNHIYSMDENLEFHIKVSYFEIYLDKIRDLLDVTKTNLSVHEDKNRVPFVKGCTERFVSSPEEILDVIDEGKSNRHVAVTNMNEHSSRSHSIFLINIKQENVETEQKLSGKLYLVDLAGSEKVSKTGAEGAVLDEAKNINKSLSALGNVISALAEGTKSYVPYRDSKMTRILQDSLGGNCRTTMFICCSPSSYNDAETKSTLMFGQRAKTIKNTASVNLELTAEQWKKKYEKEKEKTKAQKETIAKLEAELSRWRNGENVPETERLAGEDSALGAELCEETPVNDNSSIVVRIAPEERQKYEEEIRRLYKQLDDKDDEINQQSQLIEKLKQQMLDQEELLVSTRGDNEKVQRELSHLQSENDAAKDEVKEVLQALEELAVNYDQKSQEVEEKSQQNQLLVDELSQKVATMLSLESELQRLQEVSGHQRKRIAEVLNGLMRDLSEFSVIVGNGEIKLPVEISGAIEEEFTVARLYISKIKSEVKSVVKRCRQLENLQVECHRKMEVTGRELSSCQLLISQHEAKIRSLTEYMQTVELKKRHLEESYDSLSDELARLQAHETVHEVALKDKEPDTQDAEEVKKALELQMENHREAHHRQLARLRDEINEKQKTIDELKDLNQKLQLELEKLQADYERLKNEENEKSAKLQELTFLYERHEQSKQDLKGLEETVARELQTLHNLRKLFVQDVTTRVKKSAEMEPEDSGGIHSQKQKISFLENNLEQLTKVHKQLVRDNADLRCELPKLEKRLRATAERVKALEGALKEAKEGAMKDKRRYQQEVDRIKEAVRYKSSGKRGHSAQIAKPVRPGHYPASSPTNPYGTRSPECISYTNNLFQNYQNLHLQAAPSSTSDMYFASSGATSVAPLASYQKANMDNGNATDINDNRSDLPCGYEAEDQAKLFPLHQETAAS
B6: UGT1A9 (Homo sapiens, UniProt O60656); chain GKLLVVPMDGSHWFTMRSVVEKLILRGHEVVVVMPEVSWQLGRSLNCTVKTYSTSYTLEDLDREFKAFAHAQWKAQVRSIYSLLMGSYNDIFDLFFSNCRSLFKDKKLVEYLKESSFDAVFLDPFDNCGLIVAKYFSLPSVVFARGILCHYLEEGAQCPAPLSYVPRILLGFSDAMTFKERVRNHIMHLEEHLLCHRFFKNALEIASEILQTPVTEYDLYSHTSIWLLRTDFVLDYPKPVMPNMIFIGGINCHQGKPLPMEFEAYINASGEHGIVVFSLGSMVSEIPEKKAMAIADALGKIPQTVLWRYTGTRPSNLANNTILVKWLPQNDLLGHPMTRAFITHAGSHGVYESICNGVPMVMMPLFGDQMDNAKRMETKGAGVTLNVLEMTSEDLENALKAVINDKSYKENIMRLSSLHKDRPVEPLDLAVFWVEFVMRHKGAPHLRPAAHDLTWYQYHSLDVIGFLLAVVLTVAFITFKCCAYGYRKCLGKKGRVKKAHKSKTH
B7: CRYAB (Homo sapiens, UniProt P02511); chain MDIAIHHPWIRRPFFPFHSPSRLFDQFFGEHLLESDLFPTSTSLSPFYLRPPSFLRAPSWFDTGLSEMRLEKDRFSVNLDVKHFSPEELKVKVLGDVIEVHGKHEERQDEHGFISREFHRKYRIPADVDPLTITSSLSSDGVLTVNGPRKQVSGPERTIPITREEKPAVTAAPKK
B8: RNF7 5-113 (Homo sapiens, UniProt Q9UBF6); chain EDGEETCALASHSGSSGSKSGGDKMFSLKKWNAVAMWSWDVECDTCAICRVQVMDACLRCQAENKQEDCVVVWGECNHSFHNCCMSLWVKQNNRCPLCQQDWVVQRIGK
Chain of UniProt Q14653 (whole entry, looked up): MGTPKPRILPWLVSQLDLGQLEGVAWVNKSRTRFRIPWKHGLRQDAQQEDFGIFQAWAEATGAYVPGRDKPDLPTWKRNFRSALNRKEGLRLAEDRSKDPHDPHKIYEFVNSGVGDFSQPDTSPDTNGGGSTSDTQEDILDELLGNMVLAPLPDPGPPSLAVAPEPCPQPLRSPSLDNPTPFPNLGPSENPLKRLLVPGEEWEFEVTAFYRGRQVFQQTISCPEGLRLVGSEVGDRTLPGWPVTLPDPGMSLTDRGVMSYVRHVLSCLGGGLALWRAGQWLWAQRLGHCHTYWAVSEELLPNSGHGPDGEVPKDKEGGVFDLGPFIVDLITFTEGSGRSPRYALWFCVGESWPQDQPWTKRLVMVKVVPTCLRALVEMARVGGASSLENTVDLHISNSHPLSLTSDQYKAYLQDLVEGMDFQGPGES
Chain of UniProt Q61315 (whole entry, looked up): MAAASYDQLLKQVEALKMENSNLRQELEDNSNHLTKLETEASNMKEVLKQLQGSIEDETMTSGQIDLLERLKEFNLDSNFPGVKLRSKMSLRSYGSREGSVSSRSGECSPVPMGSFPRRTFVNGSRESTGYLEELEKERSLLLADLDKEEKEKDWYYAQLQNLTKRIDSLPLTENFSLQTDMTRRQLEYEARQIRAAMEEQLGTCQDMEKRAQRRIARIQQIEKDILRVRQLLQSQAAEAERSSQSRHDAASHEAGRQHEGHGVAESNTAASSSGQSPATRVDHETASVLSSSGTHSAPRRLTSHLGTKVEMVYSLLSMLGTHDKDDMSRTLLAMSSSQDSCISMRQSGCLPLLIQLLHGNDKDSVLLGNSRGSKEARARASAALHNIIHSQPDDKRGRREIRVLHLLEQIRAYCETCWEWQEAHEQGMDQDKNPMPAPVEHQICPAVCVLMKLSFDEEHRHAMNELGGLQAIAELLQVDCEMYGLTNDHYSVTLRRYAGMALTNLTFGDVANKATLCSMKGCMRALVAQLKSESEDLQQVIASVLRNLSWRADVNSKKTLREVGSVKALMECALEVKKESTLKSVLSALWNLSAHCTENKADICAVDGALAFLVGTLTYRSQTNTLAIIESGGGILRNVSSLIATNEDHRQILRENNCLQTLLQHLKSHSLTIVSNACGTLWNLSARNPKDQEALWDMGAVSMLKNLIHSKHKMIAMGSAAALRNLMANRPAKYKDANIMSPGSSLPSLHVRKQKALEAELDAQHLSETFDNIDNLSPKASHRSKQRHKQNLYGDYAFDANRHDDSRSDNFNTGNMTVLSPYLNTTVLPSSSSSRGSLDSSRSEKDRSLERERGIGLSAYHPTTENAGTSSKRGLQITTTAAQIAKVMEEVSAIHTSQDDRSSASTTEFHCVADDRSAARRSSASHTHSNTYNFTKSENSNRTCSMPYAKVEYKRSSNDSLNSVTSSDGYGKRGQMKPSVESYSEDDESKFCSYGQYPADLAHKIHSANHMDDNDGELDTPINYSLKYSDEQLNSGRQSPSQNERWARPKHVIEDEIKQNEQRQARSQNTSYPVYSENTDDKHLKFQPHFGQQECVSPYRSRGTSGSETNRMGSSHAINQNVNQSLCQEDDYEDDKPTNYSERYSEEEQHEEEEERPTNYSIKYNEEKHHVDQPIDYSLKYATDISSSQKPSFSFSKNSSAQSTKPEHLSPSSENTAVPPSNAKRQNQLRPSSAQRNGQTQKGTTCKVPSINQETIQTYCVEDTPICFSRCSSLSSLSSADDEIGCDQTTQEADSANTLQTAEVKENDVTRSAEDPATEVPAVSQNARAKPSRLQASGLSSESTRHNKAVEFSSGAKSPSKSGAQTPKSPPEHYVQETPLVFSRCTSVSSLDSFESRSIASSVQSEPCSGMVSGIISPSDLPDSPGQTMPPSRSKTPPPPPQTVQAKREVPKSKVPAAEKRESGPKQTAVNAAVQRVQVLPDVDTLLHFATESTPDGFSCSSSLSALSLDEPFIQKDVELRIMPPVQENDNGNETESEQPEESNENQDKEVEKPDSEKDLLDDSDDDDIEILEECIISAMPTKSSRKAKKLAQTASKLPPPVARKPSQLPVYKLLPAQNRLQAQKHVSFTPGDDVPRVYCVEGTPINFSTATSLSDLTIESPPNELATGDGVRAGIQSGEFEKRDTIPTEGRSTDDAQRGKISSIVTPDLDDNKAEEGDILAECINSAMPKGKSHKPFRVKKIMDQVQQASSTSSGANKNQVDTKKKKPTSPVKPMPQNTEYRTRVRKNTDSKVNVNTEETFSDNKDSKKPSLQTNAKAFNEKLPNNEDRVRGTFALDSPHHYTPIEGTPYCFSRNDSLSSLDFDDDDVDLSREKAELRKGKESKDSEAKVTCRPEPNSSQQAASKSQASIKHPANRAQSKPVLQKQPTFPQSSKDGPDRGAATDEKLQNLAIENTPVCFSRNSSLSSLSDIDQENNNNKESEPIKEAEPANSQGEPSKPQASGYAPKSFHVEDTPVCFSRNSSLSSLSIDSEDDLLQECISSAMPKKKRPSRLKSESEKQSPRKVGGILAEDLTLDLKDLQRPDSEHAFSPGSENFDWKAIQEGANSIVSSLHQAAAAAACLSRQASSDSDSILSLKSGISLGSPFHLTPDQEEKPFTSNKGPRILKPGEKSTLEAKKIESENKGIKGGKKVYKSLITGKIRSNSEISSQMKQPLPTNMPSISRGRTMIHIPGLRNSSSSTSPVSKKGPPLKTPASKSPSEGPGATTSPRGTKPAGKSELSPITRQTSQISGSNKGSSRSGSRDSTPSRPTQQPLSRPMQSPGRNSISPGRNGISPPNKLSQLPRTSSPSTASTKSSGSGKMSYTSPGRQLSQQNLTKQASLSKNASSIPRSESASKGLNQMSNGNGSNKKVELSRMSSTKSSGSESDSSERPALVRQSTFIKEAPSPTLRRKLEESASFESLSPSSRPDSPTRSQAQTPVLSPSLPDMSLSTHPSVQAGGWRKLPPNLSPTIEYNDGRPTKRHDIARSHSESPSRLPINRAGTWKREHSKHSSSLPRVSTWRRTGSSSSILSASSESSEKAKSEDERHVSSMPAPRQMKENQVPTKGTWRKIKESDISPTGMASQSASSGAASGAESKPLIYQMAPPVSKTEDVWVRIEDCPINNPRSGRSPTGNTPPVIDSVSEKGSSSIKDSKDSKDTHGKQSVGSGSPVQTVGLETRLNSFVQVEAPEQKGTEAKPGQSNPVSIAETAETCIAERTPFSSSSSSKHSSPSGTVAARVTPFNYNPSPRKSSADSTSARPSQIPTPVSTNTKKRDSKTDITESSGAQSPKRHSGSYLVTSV
Chain of UniProt P02649 (whole entry, looked up): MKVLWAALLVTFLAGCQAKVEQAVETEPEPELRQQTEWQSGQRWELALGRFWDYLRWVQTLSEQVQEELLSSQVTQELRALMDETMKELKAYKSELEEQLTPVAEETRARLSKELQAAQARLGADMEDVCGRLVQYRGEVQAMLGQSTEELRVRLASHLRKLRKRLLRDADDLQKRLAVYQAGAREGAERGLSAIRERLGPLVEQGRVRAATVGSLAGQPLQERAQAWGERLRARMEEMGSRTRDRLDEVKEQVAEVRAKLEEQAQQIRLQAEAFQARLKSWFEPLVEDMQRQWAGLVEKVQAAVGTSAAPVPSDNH
Chain of UniProt P40368 (whole entry, unmodified, looked up): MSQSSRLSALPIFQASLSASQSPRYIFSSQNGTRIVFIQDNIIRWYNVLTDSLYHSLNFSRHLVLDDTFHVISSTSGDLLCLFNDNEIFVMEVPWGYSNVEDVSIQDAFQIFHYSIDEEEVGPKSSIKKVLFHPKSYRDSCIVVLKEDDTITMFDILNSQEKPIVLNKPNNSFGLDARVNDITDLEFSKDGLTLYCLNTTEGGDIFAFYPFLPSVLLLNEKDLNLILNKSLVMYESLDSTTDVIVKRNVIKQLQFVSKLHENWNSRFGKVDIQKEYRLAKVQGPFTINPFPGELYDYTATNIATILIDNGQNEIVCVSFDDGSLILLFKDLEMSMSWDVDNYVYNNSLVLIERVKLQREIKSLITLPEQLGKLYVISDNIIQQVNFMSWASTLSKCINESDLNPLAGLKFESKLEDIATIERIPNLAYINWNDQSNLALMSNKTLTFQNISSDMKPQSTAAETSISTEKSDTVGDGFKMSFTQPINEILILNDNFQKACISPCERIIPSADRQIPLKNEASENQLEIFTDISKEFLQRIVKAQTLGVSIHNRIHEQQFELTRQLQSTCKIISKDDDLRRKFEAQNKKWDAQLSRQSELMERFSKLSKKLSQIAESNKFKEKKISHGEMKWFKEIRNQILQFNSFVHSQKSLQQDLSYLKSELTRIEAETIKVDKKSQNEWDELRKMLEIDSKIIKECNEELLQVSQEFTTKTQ
Chain of UniProt Q16236 (whole entry, unmodified, looked up): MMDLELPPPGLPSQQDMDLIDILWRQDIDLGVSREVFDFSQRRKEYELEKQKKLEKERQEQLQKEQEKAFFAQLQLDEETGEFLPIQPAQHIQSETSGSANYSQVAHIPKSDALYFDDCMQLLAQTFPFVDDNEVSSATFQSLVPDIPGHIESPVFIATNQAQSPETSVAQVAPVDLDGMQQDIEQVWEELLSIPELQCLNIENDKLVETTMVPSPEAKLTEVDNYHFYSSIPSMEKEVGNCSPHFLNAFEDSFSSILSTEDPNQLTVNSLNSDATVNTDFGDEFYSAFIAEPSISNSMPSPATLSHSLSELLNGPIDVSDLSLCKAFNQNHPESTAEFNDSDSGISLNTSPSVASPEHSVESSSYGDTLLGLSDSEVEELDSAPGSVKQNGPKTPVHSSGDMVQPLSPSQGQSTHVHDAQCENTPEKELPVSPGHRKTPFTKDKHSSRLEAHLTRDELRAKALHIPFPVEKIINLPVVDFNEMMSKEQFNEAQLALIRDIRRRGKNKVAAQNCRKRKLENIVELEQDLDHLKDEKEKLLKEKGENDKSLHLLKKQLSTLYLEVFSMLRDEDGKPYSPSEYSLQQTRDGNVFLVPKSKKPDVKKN

Substance = B1 (RRP6 128-634); target or system = Exo9 core (Saccharomyces cerevisiae, UniProt P46948); test = SEC; measurement = binding; value = binds
Substance = B2 (TREM2 Ig domain 19-134 R47H); target or system = APOE ApoE3 (Homo sapiens, UniProt P02649); test = BLI; measurement = binding; value = binds
Substance = B3 (Nup98 732-880); target or system = NUP82 1-452 del172-176/C396S (Saccharomyces cerevisiae, UniProt P40368); test = SEC; measurement = binding; value = binds
Substance = B4 (DIS3); target or system = RRP45/SKI6/RRP43/RRP46/RRP42/MTR3/RRP4/RRP40/CSL4 1-305 del254-270 (Saccharomyces cerevisiae); test = reconstitution, SDS-PAGE; measurement = binding; value = binds
Substance = B5 (KIF5A); target or system = APC, SNAP-tag label (UniProt Q61315); test = TIRF-M motility reconstitution; measurement = binding; value = binds
Substance = THBS1 fragment (Homo sapiens) (sequence not shown); target or system = pad-2 fragment R298K/R299K (Caenorhabditis elegans); test = SEC; conditions = together with: GDP; measurement = binding; value = binds
Substance = ALQDLLRTLKSPSSPQQQQQVLNILKSNPQLMAAFIKQRTAKYVAN (CREBBP 2066-2111 (Homo sapiens, UniProt Q92793); sequence looked up); target or system = IRF3 189-427, phosphorylated by TBK1 (Homo sapiens, UniProt Q14653); test = SEC; measurement = binding; value = binds
Substance = B6 (UGT1A9); target or system = CCCOC(=O)c1ccc(O)cc1; test = steady-state kinetics; conditions = pH 7.4, 37 °C; measurement = Km; value = 152 µM
Substance = B7 (CRYAB); target or system = NFE2L2 del205-400 (UniProt Q16236); test = pull-down; measurement = binding; value = binds
Substance = B8 (RNF7 5-113); target or system = ARIH2 L381A/E382A/E455A (Homo sapiens, UniProt O95376); test = cryo-EM; measurement = binding; value = binds
